Assay results collected from several papers.
Each line is one published result; not all experiments were run side by side. ± marks the error that the study gave. ≈ marks a conversion by molar mass, not a printed value.

SMILES | target or system | test | test system | setting | scale | quantity | result
Cc1cc(OC(C)C)ccc1C(=O)C(C)(C)NC(=O)c1sccc1C | Botrytis cinerea | conidial germination | B05.10 | 10 µg/mL | – | inhibition | 99.8 ± 0.3%
Cc1cccc(-c2[nH]c(CNc3ccccc3F)nc2-c2ccc3ncnn3c2)n1 | bone marrow CD138+ myeloma cells | XTT | – | 0.6 µM, phenol red-free RPMI | – | viability | 83%
CC(=O)N(C)[C@H]1CCN(C(=O)c2cnc3c(c2)C[C@](C)(c2ccc(F)cc2)N3)C1 | vanin activity | – | human, whole blood ex vivo stimulated | 60 mg, 1 h post-dose | reference: baseline | pantothenic acid level | 12.3%
c1coc(-c2n[nH]cc2-c2ccnc3ccccc23)c1 | CAK1 (Candida albicans) | kinase binding, MIB/MS competition | Candida albicans lysate | 1 µM | reference: DMSO | log2 fold change | -0.22
Cc1nc2[nH]c(=O)n(O)c(=O)c2s1 | Brassica rapa | – | – | 750 g/ha, 21 days, post-emergence, glasshouse pot | – | growth inhibition | 0%
Cn1cc(-c2ccc(-c3cncc(Cl)c3N3CCC4(CCNC4=O)CC3)cc2)cn1 | COLO 205 | gene expression, microarray, measured: MKI67 mRNA | – | concentration not given, 2 h | reference: untreated cells | log2 fold change | -2.7
Oc1ccccc1-c1n[nH]cc1-c1ccnc2ccccc12 | orf19.4575 Candida albicans | kinase binding, MIB/MS competition | Candida albicans lysate | 1 µM | reference: DMSO | log2 fold change | 0.1
O=c1[nH]c2ncsc2c(=O)n1O | Brassica rapa | – | – | 10 mg/mL, 72 h | – | root length inhibition | 94%
O=C(/C=C/C=C/C=C/C1CCCCC1)NC1=C[C@@](O)(/C=C/C=C/C=C/C(=O)NC2=C(O)CCC2=O)[C@@H]2O[C@@H]2C1=O | ASPC1 | cell growth, CellTiter-Glo | – | 78 h | – | GI50 | 21.7 µM
CC(=O)NC[C@H]1CN(c2ccc(N3CCOCC3)c(F)c2)C(=O)O1 | Enterococcus faecalis | agar dilution | vancomycin-intermediate | – | – | MIC90 | 4 µg/mL (≈ 11.9 µM)
CCn1cc(-c2cc(Cn3ccnc3)cc3c2CCN([C@H](c2cc(OC)ccn2)C2CC2)C3=O)c(C(F)(F)F)n1 | SNU-16 | cell growth, inhibitor | – | 120 h | – | EC50 | 1.15 µM
O=S(=O)(NCCNC/C=C/c1ccc(Br)cc1)c1cccc2cnccc12 | PKA | inhibitor | mouse zygotes | 20 µM, injection, hCG, 72 h post, early embryonic development | – | embryos at morula stage | 0%
OC(CCN1CCCCC1)(c1ccccc1)C1CC2C=CC1C2 (stereo not drawn) | – | resting-state EEG | healthy elderly humans | oral, 4 mg, eyes open, LS mean | reference: baseline | theta power, EEG, Fz Cz, change in | 24.4%
Cc1cc(F)cc2c(CCC(=O)N[C@@H]3C(=O)NC[C@H]3O)c(-c3ccc(F)cc3)[nH]c12 | – | – | mice, APOL1 G2, single copy | oral, 30 mg/kg twice daily, day 9, dosing from day 6, with: IFNγ plasmid injection | – | UACR | 1830 µg/mg
CN[C@H](CC(C)C)C(=O)N[C@H]1C(=O)N[C@@H](CC(N)=O)C(=O)N[C@H]2C(=O)N[C@H]3C(=O)N[C@H](C(=O)N[C@H](C(=O)O)c4cc(O)cc(O)c4-c4cc3ccc4O)[C@H](O)c3ccc(c(Cl)c3)Oc3cc2cc(c3O[C@@H]2O[C@H](CO)[C@@H](O)[C@H](O)[C@H]2O[C@H]2C[C@](C)(N)[C@H](O)[C@H](C)O2)Oc2ccc(cc2Cl)[C@H]1O | Enterococcus faecalis | – | ATCC 29212 | – | – | MIC range | 1 µg/mL (≈ 0.69 µM)
CCn1cc(-c2cc(Cn3ccoc3=N)cc3c2CCN([C@@H](C)c2cc(OC)ccn2)C3=O)c(C(F)(F)F)n1 | SU-DHL10 | cell growth, inhibitor | – | 120 h | – | EC50 | 0.388 µM
CC(C)NCC(O)c1ccc(O)c(O)c1 (stereo not drawn) | mouse ventricular cardiomyocytes | – | – | dose not given, 0.191 s | – | sarcomere length | 1.69 µm
CN[C@H](CC(C)C)C(=O)N[C@H]1C(=O)N[C@@H](CC(N)=O)C(=O)N[C@H]2C(=O)N[C@H]3C(=O)N[C@H](C(=O)N[C@H](C(=O)O)c4cc(O)cc(O)c4-c4cc3ccc4O)[C@H](O)c3ccc(c(Cl)c3)Oc3cc2cc(c3O[C@@H]2O[C@H](CO)[C@@H](O)[C@H](O)[C@H]2O[C@H]2C[C@](C)(N)[C@H](O)[C@H](C)O2)Oc2ccc(cc2Cl)[C@H]1O | Staphylococcus aureus | – | MRSA | 10 isolates | – | MIC50 | 0.5 µg/mL (≈ 0.345 µM)

Some of these lines once more:
SMILES | target or system | test | test system | setting | scale | quantity | result
Cn1cc(-c2ccc(-c3cncc(Cl)c3N3CCC4(CCNC4=O)CC3)cc2)cn1 | COLO 205 | gene expression, microarray, measured: MKI67 mRNA | – | concentration not given, 2 h | reference: untreated cells | log2 fold change | -2.7
Oc1ccccc1-c1n[nH]cc1-c1ccnc2ccccc12 | orf19.4575 Candida albicans | kinase binding, MIB/MS competition | Candida albicans lysate | 1 µM | reference: DMSO | log2 fold change | 0.1
